Measurements pooled from the literature.
Every numbered part comes from another study and shows a few of its results, in no order.

Block 1
Target: Histone acetyltransferase KAT6A, winged helix 2, GST fusion (KAT6A, Homo sapiens, UniProt Q92794, residues 85-181)
Method: protein binding microarray
Molecule type: double-stranded DNA, one strand shown
Matrix: in vitro
Tested at: not given
Setting: 8-mer, flanks averaged, mean of 2 arrays, mostly near background
Reference: not given
Direction: higher = stronger binding
Measurement: E-score
Target sequence (chain): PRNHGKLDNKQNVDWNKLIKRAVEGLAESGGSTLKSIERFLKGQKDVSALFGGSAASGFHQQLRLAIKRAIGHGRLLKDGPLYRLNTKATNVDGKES
Strand = AGTCCGTG; result = -0.265
Strand = GCAGGCAA; result = 0.175
Strand = TACACCGA; result = 0.0563
Strand = ACCTGACA; result = -0.0677

Block 2
Target: Prothrombin, mature alpha-thrombin (F2, Homo sapiens, UniProt P00734)
Method: aptamer microarray, sandwich
Molecule type: DNA with 2'F-ANA
Matrix: in vitro
Tested at: 200 nM
Setting: whole 15-mer aptamer, many near background
Together with: Cy3 exosite-II aptamer, 400 nM
Direction: higher = stronger binding
Measurement: mean fluorescence intensity
Strand = GGTTGGTGTGGTTGG (2'F-ANA at 1 2 4 6 7 8 9 12 13 14); result = 57.1 a.u.
Strand = GGTTGGTGTGGTTGG (2'F-ANA at 3 6 7 8 9 10 11 12 15); result = 490 a.u.
Strand = GGTTGGTGTGGTTGG (2'F-ANA at 5 8 9 10 12 15); result = 52.4 a.u.
Strand = GGTTGGTGTGGTTGG (2'F-ANA at 2 4 5 6 7 8 11 12 13 14); result = 47.8 a.u.

Block 3
Target: Phosphate system positive regulatory protein PHO4, full length, GST-tagged (PHO4, Saccharomyces cerevisiae, UniProt P07270, residues 1-312)
Method: competition protein-binding microarray
Molecule type: double-stranded DNA, one strand shown
Matrix: in vitro
Tested at: 2 µM
Setting: whole 60-bp probe, lowest competitor level
Together with: Cbf1 competitor, 0.05 µM
Direction: higher = stronger binding
Measurement: fluorescence intensity
Residues (chain): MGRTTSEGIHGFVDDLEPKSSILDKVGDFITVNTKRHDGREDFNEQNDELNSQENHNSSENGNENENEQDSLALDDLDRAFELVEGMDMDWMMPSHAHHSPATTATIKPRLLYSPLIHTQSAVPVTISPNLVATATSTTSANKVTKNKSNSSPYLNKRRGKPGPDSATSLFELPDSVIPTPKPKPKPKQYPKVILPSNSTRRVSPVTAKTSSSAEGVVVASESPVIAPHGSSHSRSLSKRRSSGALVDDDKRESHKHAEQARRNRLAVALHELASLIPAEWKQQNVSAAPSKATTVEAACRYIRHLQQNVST
Strand = CTTCTGTAAATTTGTCACGTGTTTTGACGCGCCCCGGTCTTGATTCGCTTGACGCTGCTG; result = 13800 a.u.
Strand = CCGACGTTGGCTTATTATGTGACGGATTGTTTTCAGGTCTTGATTCGCTTGACGCTGCTG; result = 3370 a.u.
Strand = AAATTACTAAGTTGCAGGGTGGGTGACGCCGTATGAGTCTTGATTCGCTTGACGCTGCTG; result = 4730 a.u.
Strand = TGTGGATCATATCTCATATCTTCACATATACGAACAGTCTTGATTCGCTTGACGCTGCTG; result = 3430 a.u.

Other studies, line by line
Molecule = PhoQ, residues 284 288 289 292 302 303 SQSLSM; target = PhoP, residues 12 14 15 18 19 SQCLL (Escherichia coli, UniProt P23836); assay = Sort-seq, measured: YFP reporter; test system = E. coli; conditions = PhoQ-PhoP variant library, together with: 10 µM Mg2+; scale = reference: high Mg2+ state, higher = stronger signaling; measurement = fold induction; result = 8.67

A few entries again (block 3):
Strand = CTTCTGTAAATTTGTCACGTGTTTTGACGCGCCCCGGTCTTGATTCGCTTGACGCTGCTG; result = 13800 a.u.
Strand = AAATTACTAAGTTGCAGGGTGGGTGACGCCGTATGAGTCTTGATTCGCTTGACGCTGCTG; result = 4730 a.u.
